Results gathered from unrelated publications.
Lines come from different studies, so protocols differ. Numbers after ± are the reported error.

SMILES	organism	assay	system	setting	inhibition [%]
CCN(CC)CC#CCO[C@H]1CC[C@H](O)[C@@H]2[C@H]1[C@H]1C[C@@H]3[C@@]4(C)CCC[C@@](C)(C(=O)OC)[C@@H]4CC[C@@]23C=C1C(C)C	SARS-CoV-2 pseudovirus	pseudovirus infection	BHK-21-hACE2	20.0 µM	39.9
N=C(N)NCc1cn([C@@H]2[C@@H](OCCn3cc(COCCOCCOCCn4cc(-c5cc(OCCOCCO)c(C#Cc6cc(OCCOCCO)c(C#Cc7cc(OCCOCCO)c(-c8cn(CCOCCOCCOCc9cn(CCO[C@H]%10O[C@H](CO)[C@@H](O)[C@H](O)[C@@H]%10n%10cc(CNC(=N)N)nn%10)nn9)nn8)cc7OCCOCCO)cc6OCCOCCO)cc5OCCOCCO)nn4)nn3)O[C@H](CO)[C@@H](O)[C@@H]2O)nn1.O=CO.O=CO	rVSV-luc pseudotyped with SARS-CoV-2 S	L-SIGN-mediated trans-infection	Jurkat expressing L-SIGN	5 µM	94.6
Cc1oc2nc1C(=O)N[C@](C)(C(=O)O)c1nc(c(C)o1)C(=O)N[C@](C)(C(=O)O)c1nc(c(C)o1)C(=O)N[C@]2(C)C(=O)O	SARS-CoV-2	virucidal activity	Vero E6, NRC-03-nhCoV	20 µM	60
O=S(=O)(O)c1c2ccccc2c(-c2c3nc(c(-c4c5ccccc5c(S(=O)(=O)O)c5ccccc45)c4ccc([nH]4)c(-c4c5ccccc5c(S(=O)(=O)O)c5ccccc45)c4nc(c(-c5c6ccccc6c(S(=O)(=O)O)c6ccccc56)c5ccc2[nH]5)C=C4)C=C3)c2ccccc12	vaccinia virus	viral replication	WR	25 µg/mL, 16 h	39 ± 13
Cc1ccc(N2CC(N3CCC(C)(O)CC3)C2)cc1C(=O)NC1(c2ccc3c4c(cccc24)C(=O)N3C)CC1	SARS-CoV-2	viral replication	Vero C1008, XBB.1	0.1543 µM	90
CCN(CC)CC#CCOC(=O)[C@]1(C)CCC[C@]2(C)c3ccc(C(C)C)cc3CC[C@@H]12	SARS-CoV-2 pseudovirus	pseudovirus infection	BHK-21-hACE2	20.0 µM	47.7
Cc1ccc(N2CC3CC(C2)N3)cc1C(=O)NC1(c2ccc3c4c(cccc24)C(=O)N3C)CC1	SARS-CoV-2	viral replication	Vero C1008, wild type	12.5 µM	100
CC(C)C1=C[C@@]23CC[C@@H]4[C@](C)(CCC[C@@]4(C)C(=O)OCC#CCN4CCCC4)[C@H]2C[C@@H]1[C@H]1C(=O)CCC(=O)[C@H]13	SARS-CoV-2 pseudovirus	pseudovirus infection	BHK-21-hACE2	20.0 µM	16.8
Cc1ccc(N2CC(N3CCC(C)(O)CC3)C2)cc1C(=O)NC1(c2ccc3c4c(cccc24)CC3)CC1	SARS-CoV-2	viral replication	Vero C1008, wild type	0.005716 µM	0
Cc1oc2nc1C(=O)N[C@](C)(C(=O)NCCc1ccccc1)c1nc(c(C)o1)C(=O)N[C@](C)(C(=O)NCCc1ccccc1)c1nc(c(C)o1)C(=O)N[C@]2(C)C(=O)NCCc1ccccc1	SARS-CoV-2	virucidal activity	Vero E6, NRC-03-nhCoV	5 µM	0
COC(=O)[C@]1(C)CCC[C@]2(C)[C@H]3C[C@H]4C(C(C)C)=C[C@]3(CC[C@H]21)[C@H]1[C@@H]4[C@@H](OCC#CCN2CCOCC2)CC[C@@H]1O	SARS-CoV-2 pseudovirus	pseudovirus infection	BHK-21-hACE2	20.0 µM	34
O=C(C=Cc1ccc(O)c(O)c1)OC1CC(O)(C(=O)O)CC(OC(=O)C=Cc2ccc(O)c(O)c2)C1O (stereo not drawn)	Severe acute respiratory syndrome coronavirus 2	cytopathic effect	Vero C1008	0.7812 µM	0
CC(C)CC(C(=O)N1CC2(CC1C#N)C(=O)Nc1ccccc12)N(C)C(=O)c1cc2c(F)cc(F)c(F)c2[nH]1 (stereo not drawn)	pangolin coronavirus	viral replication	–	0.1111 µM	100
CC(C)c1ccc2c(c1)CC[C@H]1[C@](C)(C(=O)OCC#CCN3CCCC3)CCC[C@]21C	SARS-CoV-2 pseudovirus	pseudovirus infection	BHK-21-hACE2	20.0 µM	> 60
COC(=O)c1cc2c(=O)n3ccccc3nc2n1Cc1ccccc1	Severe acute respiratory syndrome coronavirus 2	viral replication	Vero	10 µM	65.8
Cc1ccc(N2CCN(C)CC2)cc1C(=O)NC1(c2ccc3c4c(cccc24)CC3)CC1	SARS-CoV-2	viral replication	Vero C1008, Omicron BA.5	0.01715 µM	0
CCN(CC)CC#CCOC(=O)[C@]1(C)CCC[C@]2(C)[C@H]3C[C@H]4C(C(C)C)=C[C@]3(CC[C@H]21)[C@@H]1C(=O)OC(=O)[C@@H]14	SARS-CoV-2 pseudovirus	pseudovirus infection	BHK-21-hACE2	20.0 µM	38.9
O=[N+]([O-])c1ccc(-n2nc(-c3ccccc3)cc2-c2ccc(F)cc2)c([N+](=O)[O-])c1	Japanese encephalitis virus	viral replication, item: viral RNA	SA14-14-2, mice, spleen	ip, 100 mg/kg/day, 120 h	40.9

For quick reference, copied from above:
SMILES	organism	assay	system	setting	inhibition [%]
O=[N+]([O-])c1ccc(-n2nc(-c3ccccc3)cc2-c2ccc(F)cc2)c([N+](=O)[O-])c1	Japanese encephalitis virus	viral replication, item: viral RNA	SA14-14-2, mice, spleen	ip, 100 mg/kg/day, 120 h	40.9
CC(C)C1=C[C@@]23CC[C@@H]4[C@](C)(CCC[C@@]4(C)C(=O)OCC#CCN4CCCC4)[C@H]2C[C@@H]1[C@H]1C(=O)CCC(=O)[C@H]13	SARS-CoV-2 pseudovirus	pseudovirus infection	BHK-21-hACE2	20.0 µM	16.8
